Published values gathered from unrelated publications.
Compare with care: the assays were run in different laboratories. “And” joins repeats or separate records; there may be more than shown.
Target: Misshapen-like kinase 1 (MINK1, Homo sapiens, UniProt Q8N4C8)

`COc1ccc(NC(=O)Nc2ccc3c(c2)C(=O)N(C(C)CO)CC(C)C(CN(C)Cc2ccc4c(c2)OCO4)O3)cc1` (stereo not drawn) has a remaining activity of 93% (kinase activity, KinaseProfiler; 0.03 µM, species human; reference: control).
With `Cc1cccc(O[C@H]2CCC[C@@H](C(C)CNCc3ccncc3)C2)c1` (relative stereo) the inhibition was -13% (enzyme activity, inhibitor; 10 µM).
`COc1cc(Nc2nc(C)cc(-c3cnn4nc(OC)ccc34)n2)cc(C(F)(F)F)c1` has a remaining binding of 79% (KINOMEscan; 1 µM, MINK; reference: DMSO).
For `C=CC(=O)N1Cc2nc(-c3cc(-c4cc(Cl)cnc4Cl)c(F)cc3F)n(-c3ccncn3)c2C1`, the inhibition was 9.9% (cell-free assay, inhibitor; 1 µM).
`CC(C)=CC1OC(C)(C)C2C=C3C(=O)C(Cl)=CC(O)C3C3C(O)C4OC4C(=O)C132` (stereo not drawn) has a remaining binding of 60% (cell-free assay, competition with immobilised ligand; 10 µM).
`CCn1cc(C(=O)O)c(=O)c2c(N)c(F)c(NC3CCCCC3)cc21` has an inhibition of 7.5% (kinase activity; 0.1 µM, with: ATP at Km).
The inhibition of `C=CC(=O)Nc1cccc(-c2cnc3[nH]cc(C(=O)NC(C)(C)C)c3n2)c1` is reported as 23% and 35% (kinase activity; 0.1 µM).
With `CNC1C[S+]2CC[S+]3CC[S+](C1)[Ru-4]321([N]=C=S)[n]2c3ccc(OC)cc3c3c4c(c5cc(F)c[n+]1c5c32)C(=O)NC4=O` (stereo not drawn) the remaining binding was 79% (KinomeScan; 0.1 µM; reference: untreated).
`Cc1ccc(-c2c(/C=C(\C#N)C(=O)NC(C)C)n(CCCO)c3ncnc(N)c23)cc1` has a remaining binding of 99% (cell-free assay, competition with immobilised ligand; 1 µM).
For `O=C(Cc1ccc(OCc2ccccc2)cc1)NC1(C(=O)O)CCN(C(=O)c2ccc(-c3cccc(Cl)c3)cc2)CC1`, “activity vs control” read 108% (enzyme activity, inhibitor; 10 µM).
For `CCN1CCN(Cc2ccc(C(=O)Nc3ccc(C)c(NCc4cnc5[nH]ccc5c4OC)c3)cc2C(F)(F)F)CC1`, the remaining binding was 10% (binding, competition with immobilised ligand; 1 µM).
`COc1c(OCCCN2CCOCC2)ccc2c1N=C(NC(=O)c1cnc(N)nc1)N1CCN=C21` gave a remaining activity of 126% (kinase activity, inhibitor; 1 µM; reference: untreated control).
With `C=CC(=O)N1CCCC(n2c(=O)c3ncccc3n(Cc3ccc(Oc4ccccc4)cc3)c2=O)C1` (stereo not drawn) the remaining binding was 75% (cell-free assay, competition with immobilised ligand; 1 µM).
With `NC(=O)C[C@H]1CCc2sc3ncnc(O[C@H]4CC[C@H](N5CCOCC5)CC4)c3c21` the inhibition was 15% (enzyme activity, inhibitor; 10 µM).
`CNC(=O)C[C@H](Cc1ccc(C#N)cc1)NC(=O)c1cc(-c2ccc(CN[C@H](C)c3ccc(C)cc3)o2)ccc1Cl`: “activity vs control” 90% (enzyme activity, inhibitor; 1 µM).

For quick reference, copied from above:
For `CCN1CCN(Cc2ccc(C(=O)Nc3ccc(C)c(NCc4cnc5[nH]ccc5c4OC)c3)cc2C(F)(F)F)CC1`, the remaining binding was 10% (binding, competition with immobilised ligand; 1 µM).
`COc1c(OCCCN2CCOCC2)ccc2c1N=C(NC(=O)c1cnc(N)nc1)N1CCN=C21` gave a remaining activity of 126% (kinase activity, inhibitor; 1 µM; reference: untreated control).
